Published values collected from several papers.
Compare with care: the assays were run in different laboratories. ± gives the spread as reported.
Organism: Staphylococcus aureus

| Structure (SMILES) | assay | system | conditions | scale | MIC |
| --- | --- | --- | --- | --- | --- |
| COc1ccc(-c2csc(N/N=C(\C)c3ccc4c(c3)sc3nc(=O)c(C#N)cn34)n2)cc1 | broth microdilution |  |  |  | < 40 µg/mL |
| CCc1nc(N)nc(N)c1C#C[C@H](C)c1cc(-c2ccncc2)ccc1OC | broth microdilution | ATCC 43300 | 18 h, 37 °C |  | 0.078 µg/mL |
| CCCCCCCCCc1nc2cc(Cl)ccc2c(=O)n1CCCN | broth microdilution | RN6390B |  |  | 6.25 µM |
| CC(C)C(O)C(NC(=O)[C@H](Cc1ccc(O)cc1)NC(=O)C(Cc1ccc(O)cc1)[N+](C)(C)C)C(=O)N[C@@H](C)C(=O)O (stereo partly shown) |  | ATCC 29213 |  |  | > 100 µM |
| O=C(NCCNCCO)c1cn(Cc2cccc(Br)c2)c2cc(Cl)c(OCc3ccc(C(F)(F)F)cc3)cc2c1=O |  | ATCC 43300 MRSA |  | ≥80% growth inhibition | < 0.25 µg/mL |
| CCn1cc(/C=C/c2ccc3ccccc3[n+]2CC)c2ccccc21 |  | 1466, Mueller-Hinton broth |  |  | 4 ± 0.002 µg/mL |
| CCOC1C(C)C2C(C=CC3C(C)C=CC=CC(C)OC(=O)C(C)C(=O)C(Cl)(Cl)C(=O)C32)CC1(C)O (stereo not shown) | microbial growth, broth dilution | NEWMAN |  |  | > 3.2 µg/mL |
| CC1(C)S[C@@H]2[C@H](NC(=O)[C@H](NC(=O)C3=C(O)C(c4ccccc4F)NC3=O)c3ccccc3)C(=O)N2[C@H]1C(=O)O (stereo partly shown) | microbial growth, broth dilution | ATCC29213 MSSA | drug-resistant strain |  | 0.78 µg/mL |
| COc1ccc2c(c1CC=C(C)C)O[C@H]1c3cc4c(cc3OC[C@@]21O)OC(C)(C)C=C4 |  | ATCC 25923 |  |  | 128 µg/mL |
| CN(C)c1cc(CNC(C)(C)C)c(O)c2c1C[C@H]1C[C@H]3[C@H](N(C)C)C(O)=C(C(N)=O)C(=O)[C@@]3(O)C(O)=C1C2=O | microbial growth, broth dilution |  |  |  | 4 µg/mL |
| CNC(CC(C)C)C(=O)NC1C(=O)NC(CC(N)=O)C(=O)NC2C(=O)NC3C(=O)NC(C(=O)NC(C(=O)O)c4cc(O)cc(O)c4-c4cc3ccc4O)C(O)c3ccc(c(Cl)c3)Oc3cc2cc(c3OC2OC(CO)C(O)C(O)C2OC2CC(C)(NC(=O)CCCCCCCCC[N+](C)(C)Cc3ccccc3)C(O)C(C)O2)Oc2ccc(cc2Cl)C1O (stereo not shown) | agar dilution | MRSA clinical isolate MRSA4 |  |  | 32 µg/mL |
| S=c1n(CN2CCN(Cc3ccccc3)CC2)nc(C23CC4CC(CC(C4)C2)C3)n1-c1ccccc1 | two-fold dilution | IFO 3060 | 24 h, 36 °C |  | 8 µg/mL |
| C=CCO[C@H]1[C@H](O)[C@@H](N)[C@@H](O[C@H]2[C@H](O[C@@H]3O[C@H](CO)[C@@H](O[C@H]4O[C@@H](CN)[C@@H](O)[C@H](O)[C@H]4N)[C@H]3O)[C@@H](O)[C@H](N)C[C@@H]2N)O[C@@H]1CO | broth microdilution | MRSA isolate AG 044 |  |  | 8 to 16 µg/mL |
| CN(C)c1cc(CN2CCc3ccccc3C2)c(O)c2c1C[C@H]1C[C@H]3[C@H](N(C)C)C(O)=C(C(N)=O)C(=O)[C@@]3(O)C(O)=C1C2=O |  | RN4250, Tet K efflux |  |  | 0.5 µg/mL |
| CC1COC(=O)N1/N=C/c1ccc([N+](=O)[O-])o1 (stereo not shown) | microbial growth, broth dilution | ATCC29213 | 18 h |  | 25 µg/mL |
| CCCCCCc1ccc(Oc2ccc(Oc3cccc(=O)[nH]3)cc2)c(O)c1 | microbial growth, broth dilution |  |  |  | 10 µM |

| Structure (SMILES) | assay | system | conditions | scale | MIC |
| --- | --- | --- | --- | --- | --- |
| CN(C)c1cc(CNc2ccccc2)c(O)c2c1C[C@H]1C[C@H]3[C@H](N(C)C)C(O)=C(C(N)=O)C(=O)[C@@]3(O)C(O)=C1C2=O |  | RN4250, Tet K efflux |  |  | 2 µg/mL |
| CCCCc1ccc(N2C(=O)/C(=N\NC(=N)N)c3cc(OC)ccc32)cc1 | microbial growth, broth dilution |  | 18 h |  | 6 µg/mL |
| C=CCNCc1cc(N(C)C)c2c(c1O)C(=O)C1=C(O)[C@]3(O)C(=O)C(C(N)=O)=C(O)[C@@H](N(C)C)[C@@H]3C[C@@H]1C2 | microbial growth, broth dilution |  |  |  | 1 µg/mL |
| CC(C)S[C@H]1[C@H](O)[C@@H](N)[C@@H](O[C@H]2[C@H](O[C@@H]3O[C@H](CO)[C@@H](O[C@H]4O[C@@H](CN)[C@@H](O)[C@H](O)[C@H]4N)[C@H]3O)[C@@H](O)[C@H](N)C[C@@H]2N)O[C@@H]1CO |  | methicillin-resistant |  |  | 4 to 8 µg/mL |
| CCC1(C)CCN(Cc2cc(N(C)C)c3c(c2O)C(=O)C2=C(O)[C@]4(O)C(=O)C(C(N)=O)=C(O)[C@@H](N(C)C)[C@@H]4C[C@@H]2C3)CC1 | microbial growth | MRSA |  |  | 1 µg/mL |
| Cc1cc(/C=C2\Sc3ccccc3N2CCCN2CCCC2)c2ccccc2[n+]1C | microbial growth, broth dilution | ATCC29213 |  |  | 32 µg/mL |
| CN(C)c1cc(CNCC(N)=O)c(O)c2c1C[C@H]1C[C@H]3[C@H](N(C)C)C(O)=C(C(N)=O)C(=O)[C@@]3(O)C(O)=C1C2=O |  | MRSA 5, Tet M ribosome protection |  |  | 16 µg/mL |
| COCO[C@H]1[C@H](O)[C@@H](N)[C@@H](O[C@H]2[C@H](O[C@@H]3O[C@H](CO)[C@@H](O[C@H]4O[C@@H](CN)[C@@H](O)[C@H](O)[C@H]4N)[C@H]3O)[C@@H](O)[C@H](N)C[C@@H]2N)O[C@@H]1CO | broth microdilution | MRSA isolate AG 042 |  |  | 32 µg/mL |
| CCCCCCCCCc1nc2cc(C(F)(F)F)ccc2c(=O)n1N | broth microdilution | RN6390B |  |  | > 100 µM |
| NC[C@@H]1O[C@H](O[C@H]2[C@@H](O)[C@H](O[C@@H]3[C@@H](O)[C@H](N)C[C@H](N)[C@H]3O[C@H]3O[C@H](CO)[C@@H](OCC(O)CO)[C@H](O)[C@H]3N)O[C@@H]2CO)[C@H](N)[C@@H](O)[C@@H]1O (stereo partly shown) | broth microdilution | MRSA isolate AG 045 |  |  | 16 µg/mL |
| CCN(CC)CCCN1/C(=C/c2cc(C)[n+](C)c3ccccc23)Sc2ccccc21 | microbial growth, broth dilution | MRSA |  |  | 8 µg/mL |
| CNC(CC(C)C)C(=O)NC1C(=O)NC(CC(N)=O)C(=O)NC2C(=O)NC3C(=O)NC(C(=O)NC(C(=O)O)c4cc(O)cc(O)c4-c4cc3ccc4O)C(O)c3ccc(c(Cl)c3)Oc3cc2cc(c3OC2OC(CO)C(O)C(O)C2OC2CC(C)(NC(=O)CCCC[N+](C)(C)Cc3ccccc3)C(O)C(C)O2)Oc2ccc(cc2Cl)C1O (stereo not shown) | agar dilution | MRSA clinical isolate MRSA4 |  |  | 64 µg/mL |
| CN(C)c1cc(CNCc2ccc(O)cc2)c(O)c2c1C[C@H]1C[C@H]3[C@H](N(C)C)C(O)=C(C(N)=O)C(=O)[C@@]3(O)C(O)=C1C2=O |  | RN4250, Tet K efflux |  |  | 4 µg/mL |
| CC1=CC2(C)C(=C(C)C3C4CC(C)CC(C)C4C4Oc5ccc(cc5)CC5(O)NC(=O)C(=C(O)C2C43)C5Nc2ncnc3c2ncn3C2OC(CO)C(O)C2O)C1C (stereo not shown) | microbial growth, broth dilution | ATCC29213 |  |  | 6.3 µM |
| Oc1c(Br)cc(Br)c2nc3cc(SC(F)(F)F)ccc3nc12 | broth microdilution | MRSA 1707 | 16 h, 37 °C |  | 0.04 µM |

For quick reference, copied from above:
| Structure (SMILES) | assay | system | conditions | scale | MIC |
| --- | --- | --- | --- | --- | --- |
| COc1ccc2c(c1CC=C(C)C)O[C@H]1c3cc4c(cc3OC[C@@]21O)OC(C)(C)C=C4 |  | ATCC 25923 |  |  | 128 µg/mL |
| Oc1c(Br)cc(Br)c2nc3cc(SC(F)(F)F)ccc3nc12 | broth microdilution | MRSA 1707 | 16 h, 37 °C |  | 0.04 µM |
| CC(C)C(O)C(NC(=O)[C@H](Cc1ccc(O)cc1)NC(=O)C(Cc1ccc(O)cc1)[N+](C)(C)C)C(=O)N[C@@H](C)C(=O)O (stereo partly shown) |  | ATCC 29213 |  |  | > 100 µM |
